Published values from different studies.
Each numbered part is a random draw from the data of one study; scales do not carry over between parts.

Block 1
Target: Sal-like protein 4, full length isoform B (SALL4, Homo sapiens, UniProt Q9UJQ4-2, residues 1-616)
Method: universal PBM
Molecule type: double-stranded DNA, one strand shown
Matrix: in vitro
Concentration: not given
Notes: 8-mer, flanks averaged, mean of replicates
Direction: higher = stronger binding
Measurement: E-score
TAACCCTA: -0.0018
AAATAACG: 0.269
AGGTCTCG: -0.138

Block 2
Target: Prothrombin, mature alpha-thrombin (F2, Homo sapiens, UniProt P00734)
Method: aptamer microarray, sandwich
Molecule type: DNA with 2'F-ANA
Matrix: in vitro
Concentration: 200 nM
Notes: whole 15-mer aptamer, many near background
With: Cy3 exosite-II aptamer, 400 nM
Direction: higher = stronger binding
Measurement: mean fluorescence intensity
GGTTGGTGTGGTTGG (2'F-ANA at 4 5 9 11 13 14): 47 a.u.
GGTTGGTGTGGTTGG (2'F-ANA at 1 3 5 7 9 10 13 15): 52.9 a.u.
GGTTGGTGTGGTTGG (2'F-ANA at 2 3 6 8 9 10 11 14 15): 223 a.u.

Mixed results
MYC bHLH-zipper, MAX partner unstated: Myc proto-oncogene protein, bHLH-zipper, MAX partner unstated (MYC, Homo sapiens, UniProt P01106, residues 368-449)
Chain of UniProt P01106 (368-449, looked up): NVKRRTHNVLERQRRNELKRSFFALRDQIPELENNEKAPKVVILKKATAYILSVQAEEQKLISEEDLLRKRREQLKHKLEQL
ACCATGAC — E-score (MYC bHLH-zipper, MAX partner unstated; protein-binding microarray; double-stranded DNA, one strand shown, in vitro; not given, k-mer, scored over probes, only values ≥0.25; higher = stronger binding): 0.256
PhoQ, residues 284 288 289 292 302 303 TLSLKA — fold induction (PhoP, residues 12 14 15 18 19 LHHVQ (Escherichia coli, UniProt P23836); Sort-seq, measured: YFP reporter; E. coli; PhoQ-PhoP variant library, with: 10 µM Mg2+; baseline: high Mg2+ state, higher = stronger signaling): 0.898
GTGGGTGA — E-score (MYC bHLH-zipper, MAX partner unstated; protein-binding microarray; double-stranded DNA, one strand shown, in vitro; not given, k-mer, scored over probes, only values ≥0.25; higher = stronger binding): 0.263

Some of these lines once more (mixed results):
ACCATGAC — E-score (MYC bHLH-zipper, MAX partner unstated; protein-binding microarray; double-stranded DNA, one strand shown, in vitro; not given, k-mer, scored over probes, only values ≥0.25; higher = stronger binding): 0.256
